Published values gathered from unrelated publications.
± marks the error that the study gave.
Target: Kappa-type opioid receptor (OPRK1, Homo sapiens, UniProt P41145)
UniProt P41145, sequence (whole entry, looked up): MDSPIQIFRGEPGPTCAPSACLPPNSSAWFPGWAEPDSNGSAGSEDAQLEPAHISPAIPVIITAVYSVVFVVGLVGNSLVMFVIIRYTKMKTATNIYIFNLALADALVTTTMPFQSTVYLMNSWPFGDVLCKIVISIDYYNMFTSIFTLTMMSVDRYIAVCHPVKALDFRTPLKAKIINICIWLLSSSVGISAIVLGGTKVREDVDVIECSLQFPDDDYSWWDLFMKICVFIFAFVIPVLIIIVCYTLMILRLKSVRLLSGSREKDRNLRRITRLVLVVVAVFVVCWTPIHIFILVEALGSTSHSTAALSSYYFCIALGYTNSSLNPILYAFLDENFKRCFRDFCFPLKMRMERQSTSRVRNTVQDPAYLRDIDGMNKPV

Cc1cc(O)cc(C)c1CC(N)C(=O)NC1CCNc2ccc(CN3CCc4ccccc4C3)cc21 (stereo not drawn) gave an EC50 of 90 nM (GTPγS binding, agonist, radiometric; cell membranes).
CC(C)C[C@H](NC(=O)[C@H](Cc1ccc2ccccc2c1)NC(=O)CNC(=O)[C@H](NC(=O)[C@@H](N)Cc1ccc(O)cc1)[C@H](C)O)C(=O)N[C@@H](CO)C(N)=O has an EC50 of greater than 1000 nM (GTPγS binding, agonist, radiometric; cell membranes).
CC(C)[C@H]1CC[C@H](N2CC[C@@](C)(c3cccc(O)c3)[C@@H](C)C2)CC1 gave an EC50 of greater than 10000 nM (GTPγS binding, agonist, radiometric).
Cc1cc(O)cc(C)c1CC(N)C(=O)NC1CCNc2c(C)cc(Cc3ccccc3)cc21 (stereo not drawn) has an EC50 of 760 nM (GTPγS binding, agonist, radiometric; cell membranes).
For Cc1cc(O)cc(C)c1CC(N)C(=O)NC1CCNc2ccc(Cc3ccoc3)cc21 (stereo not drawn), the EC50 was greater than 1000 nM (GTPγS binding, agonist, radiometric; cell membranes).
For Cc1cc(O)cc(C)c1CC(N)C(=O)NC1CCNc2c(Br)cc(Cc3ccccc3)cc21 (stereo not drawn), the EC50 was 310 nM (GTPγS binding, agonist, radiometric; cell membranes).
CC[C@H](C)[C@H](NC(=O)[C@@H](N)Cc1ccc(O)cc1)C(=O)N[C@@H](Cc1ccccc1)C(=O)N[C@@H](CC(N)=O)C(=O)N[C@@H](CC(C)C)C(=O)O gave an IC50 of 0.0287 ± 2.2e-14 nM ([3H]EKC binding displacement, whole-cell radioligand binding; DU-145; added: DADLE).
CC(=O)N1CCC(NC(=O)C(N)Cc2c(C)cc(O)cc2C)c2cc(CN3CCc4ccccc4C3)ccc21 (stereo not drawn) gave an EC50 of 160 nM (GTPγS binding, agonist, radiometric; cell membranes).
The EC50 of Cc1cc(O)cc(C)c1CC(N)C(=O)NC1CCNc2c(F)cc(Cc3ccccc3)cc21 (stereo not drawn) is reported as 370 nM (GTPγS binding, agonist, radiometric; cell membranes).
